Measurements of several laboratories.
Compare with care: the assays were run in different laboratories.

With `Oc1ccc(/C=C/c2cc(O)cc(O)c2)cc1` the viability was 193% (OCI-Ly1; 0.1 µM, 120 h).
For `O/N=c1\cc2n(-c3ccc(Cl)cc3)c3ccccc3nc-2cc1Nc1ccc(Cl)cc1`, the MIC was > 30 µM (Mycobacterium avium; bacterial growth; clinical isolate).
The MIC of `Cc1ccc(CCC(=O)Nc2nnc(S(N)(=O)=O)s2)cc1` is reported as > 784 µM (Bifidobacterium longum; HM-846).
`C[C@H]1[C@H](NC(=O)/C(=N\OC(C)(C)C(=O)O)c2csc(N)n2)C(=O)N1S(=O)(=O)O` has an MIC of 0.125 µg/mL (Shigella flexneri; agar dilution; ATCC 12022 susceptible).
`CCCCCCC#Cc1cncc(-c2nnc(SCc3ccc(C#N)cc3)n2C)c1` gave an MIC of ≥ 200 µM (Mycobacterium avium; no activity below value).
With `Nc1ncn([C@H]2C[C@H](O)[C@@H](CO)O2)c(=O)n1` the viability was 41.6% (OCI-Ly1; 0.1 µM, 120 h).
`CCCCCCCCCC(=O)N[C@@H](Cc1c[nH]c2ccccc12)C(=O)N[C@H](CC(N)=O)C(=O)N[C@@H](CC(=O)O)C(=O)N[C@@H]1C(=O)NCC(=O)N[C@@H](CCCN)C(=O)N[C@@H](CC(=O)O)C(=O)N[C@H](C)C(=O)N[C@@H](CC(=O)O)C(=O)NCC(=O)N[C@H](CO)C(=O)N[C@@H]([C@H](C)CC(=O)O)C(=O)N[C@@H](CC(=O)c2ccccc2N)C(=O)O[C@@H]1C` has an MIC of 1 µg/mL (Staphylococcus aureus; SH1000; added: phosphatidylethanolamine, molar ratio 0.5).
For `N=C(N)c1ccc(OCc2ccc(-c3ccccc3)cc2COc2ccc(C(=N)N)cc2)cc1`, the MIC was 200 µg/mL (Escherichia coli; 552100; compound alone).
`C[C@H](NC(=O)CO/N=c1\cc2n(-c3ccc(Cl)cc3)c3ccccc3nc-2cc1Nc1ccc(Cl)cc1)C(=O)OC(C)(C)C` has an MIC of > 30 µM (Mycobacterium avium; bacterial growth; clinical isolate).
`OC(Cn1cncn1)(Cn1cncn1)c1ccc(F)cc1F` has an MIC of 8 µg/mL (Paecilomyces variotii; MYA-3630).
For `O=C(CO/N=c1\cc2n(-c3ccc(Cl)cc3)c3ccccc3nc-2cc1Nc1ccc(Cl)cc1)NCc1ccc(C(F)(F)F)cc1`, the MIC was > 30 µM (Mycobacterium avium; bacterial growth; clinical isolate).
For `N=C(N)c1ccc(OCc2ccccc2COc2ccc(C(=N)N)cc2)cc1`, the MIC was > 200 µg/mL (Escherichia coli; mcr-1 polymyxin-resistant; 20 h, compound alone).
With `Cc1c(CN(C)C(=O)/C=C/c2cnc3c(c2)CCC(=O)N3)oc2ccccc12` the MIC was > 32 µg/mL (Escherichia coli; broth microdilution; AR-0114).
`CC1(C)SC2C(NC(=O)C(NC(=O)C3=C(O)C(Cc4ccc(F)cc4)NC3=O)c3ccccc3)C(=O)N2C1C(=O)O` (stereo not drawn) gave an MIC of 12.5 µg/mL (Escherichia coli; broth microdilution; BW25113 wild type; 18 h).
The MIC of `N=C(N)c1ccc(OCc2cccc(COc3ccc(C(=N)N)cc3)c2)cc1` is reported as 25 µg/mL (Escherichia coli; W3110; in combination, checkerboard, added: rifampicin).
`CC(=O)NC[C@H]1CN(c2ccc(N3CCOCC3)c(F)c2)C(=O)O1` gave an MIC of < 2.96 µM (Bifidobacterium longum; HM-848).
`CCCCCCC#Cc1cncc(-c2nnc(SCc3ccc([N+](=O)[O-])cc3)n2C)c1` gave an MIC of ≥ 200 µM (Mycobacterium avium; no activity below value).
With `CC1(C)S[C@@H]2[C@H](NC(=O)[C@H](N)c3ccccc3)C(=O)N2[C@H]1C(=O)O` the MIC was > 16 µg/mL (Pseudomonas aeruginosa; clinical isolate RKI-No_628/16).

Repeated from above:
For `N=C(N)c1ccc(OCc2ccccc2COc2ccc(C(=N)N)cc2)cc1`, the MIC was > 200 µg/mL (Escherichia coli; mcr-1 polymyxin-resistant; 20 h, compound alone).
With `Cc1c(CN(C)C(=O)/C=C/c2cnc3c(c2)CCC(=O)N3)oc2ccccc12` the MIC was > 32 µg/mL (Escherichia coli; broth microdilution; AR-0114).
